Experimental data of several laboratories.
Protocols differ between the studies behind these lines. Numbers after ± are the reported error.
UniProt Q5TCX8, sequence (whole entry, looked up): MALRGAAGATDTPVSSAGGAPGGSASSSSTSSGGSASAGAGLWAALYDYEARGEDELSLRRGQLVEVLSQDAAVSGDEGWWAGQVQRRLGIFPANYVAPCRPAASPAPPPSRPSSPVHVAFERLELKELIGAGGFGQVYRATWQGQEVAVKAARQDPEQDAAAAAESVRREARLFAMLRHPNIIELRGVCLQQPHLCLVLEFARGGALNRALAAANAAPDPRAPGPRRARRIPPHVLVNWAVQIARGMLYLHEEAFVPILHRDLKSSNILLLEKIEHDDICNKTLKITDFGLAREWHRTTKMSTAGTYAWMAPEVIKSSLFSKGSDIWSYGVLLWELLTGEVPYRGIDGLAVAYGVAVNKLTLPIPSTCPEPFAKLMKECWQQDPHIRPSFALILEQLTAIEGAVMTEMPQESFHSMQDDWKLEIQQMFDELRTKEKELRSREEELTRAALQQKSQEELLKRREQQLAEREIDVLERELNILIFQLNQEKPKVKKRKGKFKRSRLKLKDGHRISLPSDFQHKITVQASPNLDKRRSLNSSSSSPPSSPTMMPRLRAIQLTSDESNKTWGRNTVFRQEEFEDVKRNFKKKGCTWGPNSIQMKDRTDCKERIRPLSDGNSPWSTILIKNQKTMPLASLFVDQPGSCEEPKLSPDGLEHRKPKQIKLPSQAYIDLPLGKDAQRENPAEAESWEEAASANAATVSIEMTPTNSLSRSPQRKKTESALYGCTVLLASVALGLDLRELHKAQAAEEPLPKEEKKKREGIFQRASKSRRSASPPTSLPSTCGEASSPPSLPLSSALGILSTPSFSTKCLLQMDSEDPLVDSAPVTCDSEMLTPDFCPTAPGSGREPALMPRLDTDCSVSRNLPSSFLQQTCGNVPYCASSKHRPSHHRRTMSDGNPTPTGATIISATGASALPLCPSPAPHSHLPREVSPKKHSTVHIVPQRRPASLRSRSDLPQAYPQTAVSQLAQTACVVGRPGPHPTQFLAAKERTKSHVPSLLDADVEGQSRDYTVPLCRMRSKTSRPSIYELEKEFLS
UniProt P23945, sequence (whole entry, looked up): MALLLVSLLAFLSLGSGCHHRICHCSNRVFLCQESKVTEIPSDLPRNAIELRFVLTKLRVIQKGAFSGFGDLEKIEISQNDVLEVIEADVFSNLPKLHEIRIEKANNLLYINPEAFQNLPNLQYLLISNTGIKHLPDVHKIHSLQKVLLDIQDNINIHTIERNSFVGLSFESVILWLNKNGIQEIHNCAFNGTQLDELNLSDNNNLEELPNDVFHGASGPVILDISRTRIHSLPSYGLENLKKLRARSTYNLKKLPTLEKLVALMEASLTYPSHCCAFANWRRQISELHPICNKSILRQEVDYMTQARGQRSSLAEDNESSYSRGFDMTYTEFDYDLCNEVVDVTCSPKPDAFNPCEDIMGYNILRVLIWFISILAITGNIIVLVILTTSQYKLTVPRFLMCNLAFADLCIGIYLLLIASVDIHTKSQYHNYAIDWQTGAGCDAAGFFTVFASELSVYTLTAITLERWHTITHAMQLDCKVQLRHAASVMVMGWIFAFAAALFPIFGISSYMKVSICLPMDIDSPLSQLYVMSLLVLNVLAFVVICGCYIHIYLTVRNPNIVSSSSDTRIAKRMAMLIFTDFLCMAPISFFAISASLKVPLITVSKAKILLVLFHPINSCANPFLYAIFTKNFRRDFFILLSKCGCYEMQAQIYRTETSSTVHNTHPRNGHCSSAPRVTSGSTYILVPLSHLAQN
UniProt P11802, sequence (whole entry, looked up): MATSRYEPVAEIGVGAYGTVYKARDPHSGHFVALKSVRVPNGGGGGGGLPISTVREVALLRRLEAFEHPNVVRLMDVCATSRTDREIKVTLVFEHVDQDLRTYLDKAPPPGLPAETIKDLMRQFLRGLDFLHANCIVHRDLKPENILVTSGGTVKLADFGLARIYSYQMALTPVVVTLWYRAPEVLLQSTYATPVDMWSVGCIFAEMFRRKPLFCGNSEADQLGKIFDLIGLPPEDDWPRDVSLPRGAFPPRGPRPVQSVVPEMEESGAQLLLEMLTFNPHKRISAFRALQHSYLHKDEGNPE
UniProt Q04759, sequence (whole entry, looked up): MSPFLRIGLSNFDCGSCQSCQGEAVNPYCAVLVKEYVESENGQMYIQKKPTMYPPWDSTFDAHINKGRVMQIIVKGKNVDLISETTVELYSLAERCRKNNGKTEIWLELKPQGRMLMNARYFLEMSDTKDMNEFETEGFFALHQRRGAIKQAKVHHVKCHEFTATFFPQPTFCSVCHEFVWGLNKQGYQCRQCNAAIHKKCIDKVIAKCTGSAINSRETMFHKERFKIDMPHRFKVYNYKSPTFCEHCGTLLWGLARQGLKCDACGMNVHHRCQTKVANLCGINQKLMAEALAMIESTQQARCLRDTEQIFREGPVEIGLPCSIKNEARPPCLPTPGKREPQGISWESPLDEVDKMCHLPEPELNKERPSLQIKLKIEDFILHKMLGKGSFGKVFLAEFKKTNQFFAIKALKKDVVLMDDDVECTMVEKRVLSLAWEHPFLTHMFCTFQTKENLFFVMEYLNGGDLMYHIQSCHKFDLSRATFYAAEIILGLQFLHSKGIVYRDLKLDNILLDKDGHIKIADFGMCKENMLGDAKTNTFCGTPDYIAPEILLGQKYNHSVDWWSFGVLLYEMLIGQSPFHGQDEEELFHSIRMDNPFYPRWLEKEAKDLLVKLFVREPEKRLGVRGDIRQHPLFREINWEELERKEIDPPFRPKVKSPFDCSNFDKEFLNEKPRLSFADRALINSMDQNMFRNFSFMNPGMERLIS
UniProt P78356, sequence (whole entry, looked up): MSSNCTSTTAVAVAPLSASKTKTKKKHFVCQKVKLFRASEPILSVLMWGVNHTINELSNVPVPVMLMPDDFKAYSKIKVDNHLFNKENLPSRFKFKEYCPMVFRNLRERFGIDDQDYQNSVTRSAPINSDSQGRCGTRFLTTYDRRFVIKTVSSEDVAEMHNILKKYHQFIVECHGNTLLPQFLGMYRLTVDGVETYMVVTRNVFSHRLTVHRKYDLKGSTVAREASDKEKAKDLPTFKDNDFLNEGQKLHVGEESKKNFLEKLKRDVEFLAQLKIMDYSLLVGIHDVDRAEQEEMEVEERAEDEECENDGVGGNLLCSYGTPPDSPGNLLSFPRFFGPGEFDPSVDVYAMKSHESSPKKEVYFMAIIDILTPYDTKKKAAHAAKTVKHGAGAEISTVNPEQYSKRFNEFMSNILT
UniProt O13828, sequence (whole entry, looked up): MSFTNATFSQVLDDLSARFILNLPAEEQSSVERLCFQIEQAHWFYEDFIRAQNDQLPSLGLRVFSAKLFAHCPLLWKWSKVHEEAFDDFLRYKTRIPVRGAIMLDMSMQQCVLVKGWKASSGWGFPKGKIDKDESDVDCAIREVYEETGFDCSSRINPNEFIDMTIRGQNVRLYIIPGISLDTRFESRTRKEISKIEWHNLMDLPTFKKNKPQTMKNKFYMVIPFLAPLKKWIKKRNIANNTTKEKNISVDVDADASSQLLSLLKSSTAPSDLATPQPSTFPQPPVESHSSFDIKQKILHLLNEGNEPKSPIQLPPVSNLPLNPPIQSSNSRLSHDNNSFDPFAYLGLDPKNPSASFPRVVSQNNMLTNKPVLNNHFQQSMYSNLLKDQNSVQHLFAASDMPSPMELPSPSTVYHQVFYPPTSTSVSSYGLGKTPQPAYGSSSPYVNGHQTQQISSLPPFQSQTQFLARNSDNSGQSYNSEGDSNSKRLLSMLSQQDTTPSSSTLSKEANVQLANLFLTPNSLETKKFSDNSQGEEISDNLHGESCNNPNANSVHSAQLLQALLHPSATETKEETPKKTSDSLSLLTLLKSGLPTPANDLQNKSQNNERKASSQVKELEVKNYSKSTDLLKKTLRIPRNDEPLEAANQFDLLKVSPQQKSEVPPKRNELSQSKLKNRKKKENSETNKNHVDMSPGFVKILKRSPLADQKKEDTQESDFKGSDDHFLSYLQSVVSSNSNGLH
UniProt P27338, sequence (whole entry, looked up): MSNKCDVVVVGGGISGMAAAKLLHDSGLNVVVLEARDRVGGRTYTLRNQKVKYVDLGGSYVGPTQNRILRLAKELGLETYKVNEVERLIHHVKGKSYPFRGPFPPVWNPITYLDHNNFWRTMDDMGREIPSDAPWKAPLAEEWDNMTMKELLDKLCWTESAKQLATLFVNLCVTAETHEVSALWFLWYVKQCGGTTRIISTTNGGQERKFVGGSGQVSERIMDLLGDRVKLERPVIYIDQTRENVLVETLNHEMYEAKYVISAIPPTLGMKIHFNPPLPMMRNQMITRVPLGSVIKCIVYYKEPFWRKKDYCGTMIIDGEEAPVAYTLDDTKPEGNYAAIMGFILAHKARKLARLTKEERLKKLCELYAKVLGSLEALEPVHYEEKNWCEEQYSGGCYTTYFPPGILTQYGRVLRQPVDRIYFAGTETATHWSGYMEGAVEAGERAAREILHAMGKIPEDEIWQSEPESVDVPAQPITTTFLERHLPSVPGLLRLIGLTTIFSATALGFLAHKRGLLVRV
UniProt P42681, sequence (whole entry, looked up): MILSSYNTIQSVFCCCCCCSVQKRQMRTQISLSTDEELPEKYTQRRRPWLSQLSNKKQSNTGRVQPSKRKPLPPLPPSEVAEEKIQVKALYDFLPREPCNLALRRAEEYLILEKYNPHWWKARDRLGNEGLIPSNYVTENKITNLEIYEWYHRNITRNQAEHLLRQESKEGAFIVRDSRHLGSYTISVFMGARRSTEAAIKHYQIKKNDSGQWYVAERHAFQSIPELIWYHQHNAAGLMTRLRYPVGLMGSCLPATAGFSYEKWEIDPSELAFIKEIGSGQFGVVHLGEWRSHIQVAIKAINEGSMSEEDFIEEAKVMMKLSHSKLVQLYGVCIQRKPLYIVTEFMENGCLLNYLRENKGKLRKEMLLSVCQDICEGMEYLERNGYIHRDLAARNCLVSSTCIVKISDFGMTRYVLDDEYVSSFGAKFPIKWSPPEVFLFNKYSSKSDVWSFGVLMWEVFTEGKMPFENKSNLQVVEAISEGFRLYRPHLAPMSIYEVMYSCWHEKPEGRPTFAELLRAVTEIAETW

Compound | target | assay | system | conditions | inhibition [%]
C[C@H](NCc1ccc(-c2ccc(C(F)(F)F)cc2)cc1)C(N)=O | MAOB (Homo sapiens, UniProt P27338) | enzyme activity, inhibitor |  | 1 µM | > 90
CN(C)[C@H]1C[C@@]23CC[C@@]4(O2)C(=CC[C@]2(C)[C@@H](c5ccc6ccncc6c5)CC[C@H]24)C=C3[C@@H](O)[C@@H]1O | PIP4K2B (Homo sapiens, UniProt P78356) | ATP probe labelling, inhibitor, KiNativ profiling |  | 0.1 µM | -9.4
O=C(O)c1ccccc1/C=N/Nc1nc(-c2ccccc2Cl)cs1 | Cyclin-dependent kinase 4, with cyclin D3 (CDK4, Homo sapiens, UniProt P11802) | enzyme activity, inhibitor |  | 1 µM | 9.54
CS(C)(=O)=Nc1ccc(-c2ccc(-c3nc4cc(O[C@@H]5CO[C@H]6[C@@H]5OC[C@H]6O)[nH]c4cc3F)cc2)cc1 | TXK (Homo sapiens, UniProt P42681) | enzyme activity, inhibitor |  | 10 µM | 44
CCCCCCCCCCCCCCCCCC(=O)NC[C@H]1CC[C@H](C(=O)N[C@@H](CCC(=O)NCCCOCCOCCOCCCNC(=O)COCC(=O)N[C@@H](Cc2ccc(O)cc2)C(=O)NC(C)(Cc2ccccc2)C(=O)N[C@@H](CC(C)C)C(=O)N[C@@H](CCCC)C(=O)N[C@@H](CCCNC(=N)N)C(=O)N2CCC[C@H]2C(=O)N[C@@H](CCCNC(=N)NC)C(=O)N[C@@H](CC(N)=O)C(N)=O)C(=O)O)CC1 (some centres unmarked) | FSHR (Homo sapiens, UniProt P23945) | antagonist, DiscoverX GPCR panel |  | 1 µM | 57
COc1ccc(F)cc1S(=O)(=O)Nc1cnc2c(c1)C(=O)NCCO2 | kainate glutamate receptor | radioligand binding |  | 10 µM | 9
Fc1cccc(CN2CCNCC2)c1 | ache (Electrophorus electricus, UniProt O42275) | enzyme activity, inhibitor, Ellman |  | 20 µM | 24.5
C=CC(=O)Nc1cc(-c2nn(C3CCC(N4CCN(C(C)=O)CC4)CC3)c3ncnc(N)c23)ccc1Oc1ccccc1 (centres unmarked) | MAP3K21 (Homo sapiens, UniProt Q5TCX8) | inhibitor, KiNativ profiling | biochemical | 2 µM | 1
CC(C)[C@H]1NC(=O)C[C@H]2/C=C/CCSSC[C@@H](NC1=O)C(=O)N[C@H](Cc1cccc3ccccc13)C(=O)NCC(=O)O2 | PRKCQ (Homo sapiens, UniProt Q04759) | enzyme activity, inhibitor |  | 10 µM | -2.2
C[n+]1cn([C@@H]2O[C@H](COP(=O)([S-])OP(=O)(O)OP(=O)(O)OP(=O)([S-])OC[C@H]3O[C@@H](n4c[n+](C)c5c(O)nc(N)nc54)[C@H](O)[C@@H]3O)[C@@H](O)[C@H]2O)c2nc(N)nc(O)c21 (mixture of isomers) | mRNA decapping complex subunit 2, with Dcp1 (dcp2, Schizosaccharomyces pombe, UniProt O13828) |  |  | 200 µM, 0.5 h | 48.2 ± 22.1
Cc1ccc2c(n1)c(-c1cccc(S(C)(=O)=O)c1)c(C)n2C/C(F)=C/CN | Cacna1b (Rattus norvegicus, UniProt Q02294) | ligand displacement, radioligand |  | 10 µM | 2
